Assay results gathered from unrelated publications.
Compare with care: the assays were run in different laboratories. “And” joins repeats or separate records; there may be more than shown. Numbers after ± are the reported error.

SMILES	assay	system	conditions	how to read	measurement	result
NC(=O)c1cnc2[nH]ccc2c1N[C@@H]1[C@@H]2CC3C[C@H]1C[C@@](O)(C3)C2	flow cytometry	Japanese healthy men, blood	oral, 100 mg twice daily, 72 h after day 7 dose	baseline: baseline	CD8+ memory T-cell change	-0.15%
N#Cc1ccc(Oc2ccc3c(c2)COB3O)cc1	–	Balb/c mice, oxazolone atopic dermatitis	day 23, unit not given	baseline: vehicle	ear thickness difference	-0.144
CC(C)NCC(O)c1ccc(O)c(O)c1 (centres unmarked)	–	ventricular cardiomyocytes, C57BL/6 mouse	dose not given, 0.14 s	–	sarcomere length	1.61 µm
Cc1oncc1C(=O)Nc1ccc(C(F)(F)F)cc1	measured: dihydroorotate	female CD-1 mice, blood	oral, 30 mg/kg daily, 24 h after dose 10	–	DHO concentration	48.2 ± 13.4 µM
C[C@H]1C[C@H]2CSC(N)=N[C@@]2(c2nc(NC(=O)c3ccc(OC(F)F)cn3)cs2)CO1	measured: total Aβ	healthy adults, plasma	275 mg once daily, day 10	baseline: placebo	percent change from baseline	-70.4%
O=C(O)CNC(=O)Cc1ccccc1	–	ventricular cardiomyocytes, C57BL/6 mouse	dose not given, 0.656 s	–	sarcomere length	1.72 µm
CC(C)[C@H](NC(=O)[C@H](Cc1ccc(O)cc1)NC(=O)[C@H](Cc1ccc(O)cc1)NC(=O)[C@@H]1CCCN1C(=O)[C@H](CCC(=O)O)NC(=O)[C@H](CCC(=O)O)NC(=O)[C@H](Cc1c[nH]c2ccccc12)NC(=O)[C@@H]1CCCN1C(=O)[C@@H](NC(=O)[C@H](CCC(N)=O)NC(=O)c1ccc2c(c1)C(=O)OC21c2ccc(O)cc2Oc2cc(O)ccc21)C(C)C)C(=O)N[C@H](C(=O)N[C@@H](CCCCN)C(=O)N[C@@H](CCCCN)C(=O)N[C@@H](CO)C(=O)N[C@@H](CO)C(=O)NCC(=O)NCC(N)=O)C(C)C	added benefit of NERVE	human head and neck surgery, nerves	500 mg, added benefit	baseline: white light	share of responses	0%
Cc1cn(-c2ccc3n(c2=O)CCN([C@@H](C)[C@@H]2CC[C@H](c4cc(F)c(Cl)cc4C(F)(F)F)O2)C3=O)cn1	measured: Aβ42	human, cerebrospinal fluid	300 mg single dose, Tmax	baseline: placebo-adjusted baseline	change in CSF level	-38.9%
CCCCC1(CCCC)CN(c2ccccc2)c2cc(SC)c(OCC(=O)N[C@@H](C(=O)NCC(=O)O)c3ccccc3)cc2S(=O)(=O)C1	measured: 7α-hydroxy-4-cholesten-3-one	human, plasma	2.5 mg once daily, day 5	–	plasma C4	32.1 ng/mL
OC(CCN1CCCCC1)(c1ccccc1)C1CC2C=CC1C2 (centres unmarked)	resting-state EEG	healthy elderly humans	oral, 2 mg, eyes closed, LS mean	–	EEG power, delta, Fz-Cz	6.5 µV²
C[C@@H](NC(=O)N1C(=O)[C@H](Cc2ccnc(N)c2)[C@H]1C(=O)O)C1CCCCC1	–	human	iv infusion, 0.3 mg/kg/h, 24 h	–	PT AUEC	1840 h·s
CN(C(=O)n1cnc(-c2ccc[n+]([O-])c2)c1)C1CCCCC1	measured: PEA	human, plasma	2.5 mg single dose	–	AUC(0-t)	315 ng·h/mL
C[C@@H]1C[C@H]2[C@@H]3CCC4=CC(=O)C=C[C@]4(C)[C@@]3(F)[C@@H](O)C[C@]2(C)[C@@]1(O)C(=O)CO	–	BALB/c mice, oxazolone atopic dermatitis	topical, 20 mg/ear, 552 h, day 23, unit not given	baseline: vehicle	ear thickness difference	-0.321
C[C@H](Oc1ccc(Br)cc1-c1ccon1)C(=O)O	first response peak	human, tibialis anterior muscle	200 mg, 15 Hz, single ascending dose	–	difference from placebo	4.95%
CC[C@H](C)[C@H](NC(=O)[C@H](Cc1ccccc1)NC(=O)[C@H](CCC(=O)O)NC(=O)[C@H](CCCCN)NC(=O)[C@H](C)NC(=O)[C@H](C)NC(=O)[C@H](CCC(N)=O)NC(=O)CNC(=O)[C@H](CCC(=O)O)NC(=O)[C@H](CC(C)C)NC(=O)[C@H](Cc1ccc(O)cc1)NC(=O)[C@H](CO)NC(=O)[C@H](CO)NC(=O)[C@@H](NC(=O)[C@H](CC(=O)O)NC(=O)[C@H](CO)NC(=O)[C@@H](NC(=O)[C@H](Cc1ccccc1)NC(=O)[C@@H](NC(=O)CNC(=O)[C@H](CCC(=O)O)NC(=O)C(C)(C)NC(=O)[C@@H](N)Cc1cnc[nH]1)[C@@H](C)O)[C@@H](C)O)C(C)C)C(=O)N[C@@H](C)C(=O)N[C@@H](Cc1c[nH]c2ccccc12)C(=O)N[C@@H](CC(C)C)C(=O)N[C@H](C(=O)N[C@@H](CCCNC(=N)N)C(=O)NCC(=O)N[C@@H](CCCNC(=N)N)C(=O)NCC(=O)NCC(=O)NCC(=O)NCC(=O)N[C@@H](CO)C(=O)NCC(=O)NCC(=O)NCC(=O)NCC(=O)N[C@@H](CO)C(=O)NCC(=O)NCC(=O)NCC(=O)NCC(=O)N[C@@H](CO)C(=O)NCC(=O)N[C@@H](CSC1CC(=O)N(CCC(=O)NCC(=O)NCCOCCOCCOCCOCCC(=O)N[C@@H](CCCCNC(=O)CC[C@H](NC(=O)CCCCCCCCCCCCCCCCC(=O)O)C(=O)O)C(=O)NCCOCCOCCOCCOCCC(=O)N[C@@H](CCCCNC(=O)CC[C@H](NC(=O)CCCCCCCCCCCCCCCCCCC(=O)O)C(=O)O)C(=O)O)C1=O)C(=O)O)C(C)C (some centres unmarked)	–	db/db mouse	subcutaneous, 100 nmol/kg single, 0 to 96 h	baseline: baseline	blood glucose AUC(0-96)	6980 ± 803%
NC(=O)N1c2ccccc2C=Cc2ccccc21	beam walking test	mouse, CCI neuropathic pain model	20 mg/kg	–	beam crossing time	10.1 ± 0.81 s
c1ccc(-c2n[nH]cc2-c2ccnc3ccccc23)nc1	kinase binding, competitor, MIB/MS competition, measured: GIN4	Candida albicans cell lysate	100 nM	baseline: DMSO	log2 fold change	1.34
O[C@H]1CCCN[C@@H]1CCCn1cnc2c(Cl)c(Cl)ccc21	ELISA, measured: Pro-C6	healthy human volunteers, serum	intraduodenal, 50 mg twice daily, day 14, multiple ascending dose	–	maximum reduction	10.1%
COc1cc(F)c([C@@H]2CNC(=O)[C@H]2NC(=O)Nc2ccccc2)c(F)c1	LV haemodynamics	rat, myocardial ischaemia-reperfusion	1 mg/kg, 1008 h, 6 weeks post-injury	–	LV dP/dtmax	6520 ± 704 mmHg/s

SMILES	assay	system	conditions	how to read	measurement	result
CC(=O)N1CC(C(=O)Nc2ccc([C@H]3[C@@H](F)[C@@H](F)C[C@@H](F)[C@H]3F)cc2)C1	liver microsome stability	human liver microsomes	1 µM, without NADPH	–	hepatic clearance	3.9 mL/min/kg
COc1cc(-c2ccccc2)ncc1C(=O)Nc1ccc2c(=O)[nH]c(-c3ccc(C(C)(C)O)cc3)nc2c1	RNA-seq GSEA, measured: HALLMARK_UNFOLDED_PROTEIN_RESPONSE	organoids, small intestinal, Apc Q1405X, mouse	dose not given, wild-type organoids	baseline: DMSO, direction not given	normalized enrichment score	-1
N#Cc1ccc2c(-c3ccncc3)c(-c3ccc(F)cc3)nn2c1	kinase binding, competitor, MIB/MS competition, measured: KIN3	Candida albicans cell lysate	10 µM	baseline: DMSO	log2 fold change	0.446
CCO	–	supine	concentration not given, 0 to 4 h	baseline: baseline	maximal mean SBP decrease	10.6 mmHg
CN(CCC#N)C(=O)c1ccc([C@H]2[C@@H](F)[C@@H](F)C[C@@H](F)[C@H]2F)cc1	liver microsome stability	human liver microsomes	1 µM, without NADPH	–	hepatic clearance	3.9 mL/min/kg
CC(C)[C@H](C(=O)Nc1ccc(C(=O)NO)cc1)c1ccccc1	volumetric MRI	human, left parieto-occipital meningioma	dose not given, day 834	baseline: baseline	tumour volume change	54.4%
NCC(=O)Nc1cncc(-c2nn3c(=O)cc(N4CCNCC4)nc3s2)c1	ADP-induced platelet aggregation, light transmission aggregometry	human stable CAD patients on aspirin, platelets ex vivo	0.075 mg/kg, 5 min post dose, with: 20 µM ADP	baseline: placebo difference	inhibition of platelet aggregation	36.7%
CN(C)C(=O)c1cc2cnc(Nc3ccc(N4CCNCC4)cn3)nc2n1C1CCCC1	RNA-seq GSEA, measured: HALLMARK_GLYCOLYSIS	MB002 tumour	concentration not given, in vivo	baseline: vehicle, direction not given	normalized enrichment score	1.86
CSCCNc1nc(SCCC(F)(F)F)nc2c1ncn2[C@@H]1O[C@H](COP(=O)(O)OP(=O)(O)C(Cl)(Cl)P(=O)(O)O)[C@@H](O)[C@H]1O	platelet aggregation, light transmission aggregometry	human patients, platelet-rich plasma	dose not given, 1 h, inhibition threshold 90%, with: ADP 5 µM	–	patients with inhibition above threshold	2.5%
N[C@@H](CC(=O)N1CCn2c(nnc2C(F)(F)F)C1)Cc1cc(F)c(F)cc1F	–	type 2 diabetes patients on metformin, fasting plasma	oral, 100 mg once daily, 28 weeks	–	HDL cholesterol	48.9 mg/dL
CN[C@@H]1COc2c(S(=O)(=O)NC(=O)Nc3c4c(cc5c3CCC5)CCC4)cnn2C1	measured: IL-18	human participants, whole blood ex vivo	450 mg single dose, 336 h, IL-18, circulating, adjusted for, with: LPS/ATP	baseline: baseline	inhibition	-48.7%
C[C@H]1O[C@@H](O[C@H]2CC[C@@]3(C)[C@@H](CC[C@]4(C)[C@@H]3C=C[C@]35OC[C@@]6(CCC(C)(C)C[C@H]63)[C@@H](O)C[C@]54C)[C@]2(C)CO)[C@H](O)[C@@H](O[C@@H]2O[C@H](CO)[C@@H](O)[C@H](O)[C@H]2O)[C@H]1O	Western blot, measured: PGC-1α	chronic-plus-binge ethanol-fed mice, liver	dose not given, dose level -M, unit not given	baseline: β-actin	protein level	1.09 and 0.81 and 1.29
N#Cc1ccn2c(-c3ccncc3)c(-c3ccc(F)cc3)nc2c1	kinase binding, competitor, MIB/MS competition, measured: ENV7	Candida albicans cell lysate	1 µM	baseline: DMSO	log2 fold change	-0.0233
CCOc1cc([C@@H](CS(C)(=O)=O)N2C(=O)c3cccc(NC(C)=O)c3C2=O)ccc1OC	–	Balb/c mice, oxazolone atopic dermatitis	day 14, unit not given	baseline: vehicle	ear thickness difference	-0.131
N#Cc1ccc2c(c1)[C@H]1CCCN(C(=O)c3ccc4[nH]cnc4c3)[C@H]1C2	measured: LDL	human, Phase II trial	oral, 240 mg once daily, day 28, adjusted mean, SE	–	change from baseline	-8.38 mg/dL
C=CCn1c(=O)c2cnc(Nc3ccc(N4CCN(C)CC4)cc3)nc2n1-c1ccc2c(n1)[C@@](O)(CC)CC2	–	LS-411N xenograft, BALB/c nude mice	oral, 80 mg/kg once daily x 19, day 18	baseline: vehicle	tumour growth inhibition	60%
O=C([O-])CN1CCN(CC(=O)[O-])CCN(CC(=O)O)CCN(CC(=O)[O-])CC1.[Gd+3]	–	PBS	0.3 mM, 25 °C, 7 T	–	T1 relaxation time	543 ms
O=C(OC(C(F)(F)F)C(F)(F)F)N1CCN(Cc2cccc(Oc3ccccc3)c2)CC1	PET	rhesus monkey, hippocampus	intravenous, 0.3 mg/kg, pretreatment blocking, with: [18F]T-401	–	tracer distribution volume	1.17 mL/cm3
CC(c1cc2ccccc2s1)N(O)C(N)=O (centres unmarked)	measured: RvE3	human whole blood	3 µM, with: Escherichia coli	–	amount	20 ± 6 pg/mL blood

For quick reference, copied from above:
SMILES	assay	system	conditions	how to read	measurement	result
COc1cc(-c2ccccc2)ncc1C(=O)Nc1ccc2c(=O)[nH]c(-c3ccc(C(C)(C)O)cc3)nc2c1	RNA-seq GSEA, measured: HALLMARK_UNFOLDED_PROTEIN_RESPONSE	organoids, small intestinal, Apc Q1405X, mouse	dose not given, wild-type organoids	baseline: DMSO, direction not given	normalized enrichment score	-1
N#Cc1ccc2c(-c3ccncc3)c(-c3ccc(F)cc3)nn2c1	kinase binding, competitor, MIB/MS competition, measured: KIN3	Candida albicans cell lysate	10 µM	baseline: DMSO	log2 fold change	0.446
CCO	–	supine	concentration not given, 0 to 4 h	baseline: baseline	maximal mean SBP decrease	10.6 mmHg
CN(CCC#N)C(=O)c1ccc([C@H]2[C@@H](F)[C@@H](F)C[C@@H](F)[C@H]2F)cc1	liver microsome stability	human liver microsomes	1 µM, without NADPH	–	hepatic clearance	3.9 mL/min/kg
